# Results of several laboratories.
# Every numbered part comes from another study and shows a few of its results, in no order. “And” joins repeats or separate records; there may be more than shown.
# UniProt Q86Y07, sequence (whole entry, looked up): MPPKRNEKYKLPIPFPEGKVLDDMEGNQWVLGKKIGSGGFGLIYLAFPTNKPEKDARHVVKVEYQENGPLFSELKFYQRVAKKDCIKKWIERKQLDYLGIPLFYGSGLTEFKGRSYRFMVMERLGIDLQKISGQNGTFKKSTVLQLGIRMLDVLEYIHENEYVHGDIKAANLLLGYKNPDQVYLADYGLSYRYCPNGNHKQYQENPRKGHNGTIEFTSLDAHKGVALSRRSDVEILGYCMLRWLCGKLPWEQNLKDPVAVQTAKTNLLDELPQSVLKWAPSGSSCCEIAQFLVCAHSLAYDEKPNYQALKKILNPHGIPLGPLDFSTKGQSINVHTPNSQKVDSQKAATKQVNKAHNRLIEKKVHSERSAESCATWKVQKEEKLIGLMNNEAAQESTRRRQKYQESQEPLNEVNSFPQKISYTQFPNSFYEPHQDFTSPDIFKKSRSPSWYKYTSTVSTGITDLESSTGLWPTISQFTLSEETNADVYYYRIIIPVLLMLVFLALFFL
# UniProt O14936, sequence (whole entry, looked up): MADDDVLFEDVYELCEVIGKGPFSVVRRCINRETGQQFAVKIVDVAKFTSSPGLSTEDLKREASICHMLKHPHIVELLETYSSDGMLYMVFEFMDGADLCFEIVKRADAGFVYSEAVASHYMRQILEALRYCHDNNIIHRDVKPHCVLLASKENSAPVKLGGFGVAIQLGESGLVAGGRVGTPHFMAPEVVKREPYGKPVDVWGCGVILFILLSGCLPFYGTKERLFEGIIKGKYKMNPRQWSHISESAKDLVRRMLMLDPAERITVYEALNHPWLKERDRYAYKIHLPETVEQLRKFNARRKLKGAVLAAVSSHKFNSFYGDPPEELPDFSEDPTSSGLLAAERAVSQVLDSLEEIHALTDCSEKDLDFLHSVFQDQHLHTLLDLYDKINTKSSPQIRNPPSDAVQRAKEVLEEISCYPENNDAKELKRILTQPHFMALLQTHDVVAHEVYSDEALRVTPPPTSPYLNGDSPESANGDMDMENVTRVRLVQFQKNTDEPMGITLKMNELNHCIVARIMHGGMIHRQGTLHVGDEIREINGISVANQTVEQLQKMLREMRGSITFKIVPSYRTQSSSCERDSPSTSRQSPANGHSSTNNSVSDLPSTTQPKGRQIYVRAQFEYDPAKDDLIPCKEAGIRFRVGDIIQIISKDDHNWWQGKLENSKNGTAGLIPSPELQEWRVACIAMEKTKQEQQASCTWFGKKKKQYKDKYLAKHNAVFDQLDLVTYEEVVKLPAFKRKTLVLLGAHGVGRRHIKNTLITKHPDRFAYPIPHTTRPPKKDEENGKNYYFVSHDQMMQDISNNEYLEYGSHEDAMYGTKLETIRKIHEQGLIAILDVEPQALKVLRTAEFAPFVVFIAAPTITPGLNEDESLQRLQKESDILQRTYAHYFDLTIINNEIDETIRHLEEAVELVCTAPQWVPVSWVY
# UniProt Q15349, sequence (whole entry, looked up): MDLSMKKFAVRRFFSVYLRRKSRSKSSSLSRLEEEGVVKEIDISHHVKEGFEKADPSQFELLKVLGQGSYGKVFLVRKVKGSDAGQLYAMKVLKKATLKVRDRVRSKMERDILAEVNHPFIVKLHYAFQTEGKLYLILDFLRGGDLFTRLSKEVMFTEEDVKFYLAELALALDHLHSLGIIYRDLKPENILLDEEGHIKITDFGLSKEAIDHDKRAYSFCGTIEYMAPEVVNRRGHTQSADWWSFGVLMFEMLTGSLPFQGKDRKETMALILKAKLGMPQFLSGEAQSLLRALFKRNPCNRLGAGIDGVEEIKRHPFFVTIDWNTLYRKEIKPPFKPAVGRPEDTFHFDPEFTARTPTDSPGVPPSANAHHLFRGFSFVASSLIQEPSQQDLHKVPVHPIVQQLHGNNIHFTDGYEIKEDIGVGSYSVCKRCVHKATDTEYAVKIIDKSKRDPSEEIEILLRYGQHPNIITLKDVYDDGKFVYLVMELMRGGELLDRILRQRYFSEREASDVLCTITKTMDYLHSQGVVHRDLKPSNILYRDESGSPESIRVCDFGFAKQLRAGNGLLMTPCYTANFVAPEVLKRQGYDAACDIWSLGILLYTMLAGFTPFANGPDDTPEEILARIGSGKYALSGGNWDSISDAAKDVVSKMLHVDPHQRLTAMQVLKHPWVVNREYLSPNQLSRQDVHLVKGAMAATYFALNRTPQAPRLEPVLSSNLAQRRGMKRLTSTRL

# Series 1
# Species: human
# Sample: microsomes or S9
# Tested at: 2 µM
# Time: 0.5 h
SMILES,remaining compound [%]
CC(C)C(=O)NC[C@@H]1C[C@H](F)CN1C(=O)CS(C)(=O)=O,68.8
Cc1nccc(-c2ccccc2Cl)c1C(OC(C)(C)C)C(=O)NCCO (stereo not drawn),3.52
CCc1noc(CN(CC)C(=O)C2CNCCO2)n1 (stereo not drawn),85.4
N#Cc1ccc(C(=O)OC2c3ccccc3-c3ccccc32)[nH]1,3.68
CC(C)(C)c1csc(NNC(=O)c2ccc(Br)cc2)n1,44.1
Cc1nnc(-c2csc(S(=O)(=O)NC(C)C)c2)o1,66.6

# Series 2
# Target: DNA polymerase theta, ATPase domain (POLQ, Homo sapiens, UniProt O75417)
# UniProt O75417, sequence (whole entry, unmodified, looked up): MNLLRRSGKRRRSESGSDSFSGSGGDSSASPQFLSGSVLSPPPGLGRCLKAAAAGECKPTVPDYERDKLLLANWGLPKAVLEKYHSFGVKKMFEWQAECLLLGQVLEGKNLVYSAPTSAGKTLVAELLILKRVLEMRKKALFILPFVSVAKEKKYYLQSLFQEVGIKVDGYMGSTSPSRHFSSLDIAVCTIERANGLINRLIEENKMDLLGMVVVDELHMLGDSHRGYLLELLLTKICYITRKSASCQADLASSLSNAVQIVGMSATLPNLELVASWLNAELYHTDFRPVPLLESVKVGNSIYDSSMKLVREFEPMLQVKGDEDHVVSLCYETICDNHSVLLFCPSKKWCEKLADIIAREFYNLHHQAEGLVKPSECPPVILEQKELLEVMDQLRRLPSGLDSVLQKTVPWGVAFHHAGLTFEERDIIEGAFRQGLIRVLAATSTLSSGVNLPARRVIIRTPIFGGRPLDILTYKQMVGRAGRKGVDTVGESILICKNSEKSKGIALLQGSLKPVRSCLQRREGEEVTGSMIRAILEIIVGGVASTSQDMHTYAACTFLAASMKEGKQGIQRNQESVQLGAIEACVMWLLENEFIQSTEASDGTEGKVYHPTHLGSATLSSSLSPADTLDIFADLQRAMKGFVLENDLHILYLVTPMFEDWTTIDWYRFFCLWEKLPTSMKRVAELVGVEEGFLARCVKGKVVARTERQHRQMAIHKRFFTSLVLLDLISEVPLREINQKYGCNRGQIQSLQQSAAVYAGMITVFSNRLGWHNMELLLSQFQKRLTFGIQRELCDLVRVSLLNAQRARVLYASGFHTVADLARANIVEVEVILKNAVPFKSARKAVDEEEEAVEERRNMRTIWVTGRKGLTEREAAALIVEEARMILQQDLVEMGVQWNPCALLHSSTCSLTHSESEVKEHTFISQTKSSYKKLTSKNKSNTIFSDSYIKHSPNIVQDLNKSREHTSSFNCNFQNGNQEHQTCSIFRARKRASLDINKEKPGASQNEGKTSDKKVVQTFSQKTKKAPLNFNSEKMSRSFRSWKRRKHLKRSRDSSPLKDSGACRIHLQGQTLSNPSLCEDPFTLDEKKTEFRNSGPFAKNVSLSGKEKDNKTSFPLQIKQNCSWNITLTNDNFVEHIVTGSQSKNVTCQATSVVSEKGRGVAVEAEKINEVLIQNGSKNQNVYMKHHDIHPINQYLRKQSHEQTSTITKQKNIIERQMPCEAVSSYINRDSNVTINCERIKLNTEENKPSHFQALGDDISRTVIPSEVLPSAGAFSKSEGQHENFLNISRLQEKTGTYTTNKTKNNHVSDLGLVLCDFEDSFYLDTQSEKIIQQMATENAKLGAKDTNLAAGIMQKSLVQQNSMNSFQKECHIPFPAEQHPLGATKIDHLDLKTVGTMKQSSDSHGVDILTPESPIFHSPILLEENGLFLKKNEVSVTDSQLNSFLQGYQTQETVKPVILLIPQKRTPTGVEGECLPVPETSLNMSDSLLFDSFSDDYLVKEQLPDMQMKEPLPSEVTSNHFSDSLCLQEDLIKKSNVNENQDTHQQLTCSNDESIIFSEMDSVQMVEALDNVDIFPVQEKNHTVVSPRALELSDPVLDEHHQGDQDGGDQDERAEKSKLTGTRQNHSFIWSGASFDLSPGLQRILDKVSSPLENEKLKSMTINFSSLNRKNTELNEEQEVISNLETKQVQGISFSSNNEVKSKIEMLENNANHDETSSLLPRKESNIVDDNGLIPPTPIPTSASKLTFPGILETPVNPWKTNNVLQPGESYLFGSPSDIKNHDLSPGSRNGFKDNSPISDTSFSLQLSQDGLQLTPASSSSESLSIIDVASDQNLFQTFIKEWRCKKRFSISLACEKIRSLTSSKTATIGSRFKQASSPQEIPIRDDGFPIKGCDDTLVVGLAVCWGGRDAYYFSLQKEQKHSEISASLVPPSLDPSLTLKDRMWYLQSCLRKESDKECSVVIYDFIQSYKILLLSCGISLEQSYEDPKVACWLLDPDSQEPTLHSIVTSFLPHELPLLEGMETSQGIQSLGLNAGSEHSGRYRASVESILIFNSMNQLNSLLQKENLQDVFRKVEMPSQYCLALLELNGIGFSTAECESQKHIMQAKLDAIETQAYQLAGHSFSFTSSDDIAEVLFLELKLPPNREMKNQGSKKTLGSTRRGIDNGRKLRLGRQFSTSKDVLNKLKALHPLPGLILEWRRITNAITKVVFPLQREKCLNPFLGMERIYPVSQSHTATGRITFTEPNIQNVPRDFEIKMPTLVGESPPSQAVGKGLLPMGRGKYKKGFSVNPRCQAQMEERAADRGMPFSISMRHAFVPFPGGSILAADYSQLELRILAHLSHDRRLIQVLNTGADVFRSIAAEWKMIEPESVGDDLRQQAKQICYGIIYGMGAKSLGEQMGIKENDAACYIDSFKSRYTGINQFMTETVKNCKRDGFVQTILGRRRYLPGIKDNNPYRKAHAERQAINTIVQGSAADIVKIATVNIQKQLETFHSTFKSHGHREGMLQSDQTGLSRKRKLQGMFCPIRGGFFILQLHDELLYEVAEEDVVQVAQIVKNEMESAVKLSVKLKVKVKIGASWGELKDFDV
# Effect on: enzyme activity
# Mode: inhibitor
# Tested at: 77 µM
Structure (SMILES),remaining activity [%]
CN[C@H](CC(C)C)C(=O)N[C@H]1C(=O)N[C@@H](CC(N)=O)C(=O)N[C@H]2C(=O)N[C@H]3C(=O)N[C@H](C(=O)N[C@H](C(=O)O)c4cc(O)cc(O)c4-c4cc3ccc4O)[C@H](O)c3ccc(c(Cl)c3)Oc3cc2cc(c3O[C@@H]2O[C@H](CO)[C@@H](O)[C@H](O)[C@H]2O[C@H]2C[C@](C)(N)[C@H](O)[C@H](C)O2)Oc2ccc(cc2Cl)[C@H]1O,108
O=C(NCC(O)CO)c1c(I)c(C(=O)NCC(O)CO)c(I)c(N(CCO)C(=O)CO)c1I (stereo not drawn),94
CC[N+](C)(C)c1cccc(O)c1,92.1
CNC(=O)c1ccc(N2C(=S)N(c3ccc(C#N)c(C(F)(F)F)c3)C(=O)C2(C)C)cc1F,95.8
C=C1CC[C@H](O)C/C1=C/C=C1\CCC[C@]2(C)[C@@H]([C@H](C)CCCC(C)C)CC[C@@H]12,97.5
Clc1ccccc1C(c1ccccc1)(c1ccccc1)n1ccnc1,101

# Series 3
# Structure (SMILES): CCCOc1ccc([C@@H]2[C@@H](C(=O)O)[C@H](c3ccc4c(c3)OCO4)CN2CC(=O)Nc2c(CC)cccc2CC)cc1
# Effect on: cell-free assay
# Method: competition with immobilised ligand
# Tested at: 1 µM
target,remaining binding
"VRK2 (Homo sapiens, UniProt Q86Y07)",59%
"PRKCI (Homo sapiens, UniProt P41743)",80%
"TBK1 (Homo sapiens, UniProt Q9UHD2)",100%
"NEK5 (Homo sapiens, UniProt Q6P3R8)",55%
"CSNK1E (Homo sapiens, UniProt P49674)",98%
"COQ8B (Homo sapiens, UniProt Q96D53)",89%
"Ribosomal protein S6 kinase alpha-2, N-terminal kinase domain (RPS6KA2, Homo sapiens, UniProt Q15349)",100%
"MKNK1 (Homo sapiens, UniProt Q9BUB5)",73%
"WNK4 (Homo sapiens, UniProt Q96J92)",80%
"CASK (Homo sapiens, UniProt O14936)",89%
"STK36 (Homo sapiens, UniProt Q9NRP7)",88%
"TAOK2 (Homo sapiens, UniProt Q9UL54)",91%
"AKT2 (Homo sapiens, UniProt P31751)",100%
"EGFR (Homo sapiens, UniProt P00533, L858R/T790M)",87%
"MET (Homo sapiens, UniProt P08581, Y1235D)",99%
"FLT3 (Homo sapiens, UniProt P36888, ITD)",91%

# Series 4
# Compound: CC(C)C(=O)N1CCN(c2nc(OC[C@@H]3CCCN3C)nc3c2CCN(c2cccc4cccc(Cl)c24)C3)C[C@@H]1CC#N
# Effect on: binding
# Mode: competitor
# Method: NanoBRET
# Cell line: HEK293
# KRAS Q61L: GTPase KRas (KRAS, Homo sapiens, UniProt P01116, Q61L)
target,tested at,normalized BRET
KRAS Q61L,1.24 µM,97.1% and 97.5% and 93.4%
KRAS Q61L,45.7 nM,92.2% and 97.3% and 99.3%
"GTPase KRas (KRAS, Homo sapiens, UniProt P01116, G12D)",1.69 nM,91.6% and 101%
"GTPase KRas (KRAS, Homo sapiens, UniProt P01116, Q61H)",412 nM,93.1% and 94.4% and 103%
KRAS Q61L,33.3 µM,68.9% and 76.5% and 75%

# For quick reference, copied from above (series 4):
target,tested at,normalized BRET
KRAS Q61L,1.24 µM,97.1% and 97.5% and 93.4%
KRAS Q61L,45.7 nM,92.2% and 97.3% and 99.3%
"GTPase KRas (KRAS, Homo sapiens, UniProt P01116, G12D)",1.69 nM,91.6% and 101%
"GTPase KRas (KRAS, Homo sapiens, UniProt P01116, Q61H)",412 nM,93.1% and 94.4% and 103%
KRAS Q61L,33.3 µM,68.9% and 76.5% and 75%
